Published values of several laboratories.
Compare with care: the assays were run in different laboratories. Several values in a cell are separate wells, animals, samples, runs or records. Numbers after ± are the reported error.
Oprd1: Delta-type opioid receptor (Oprd1, Rattus norvegicus, UniProt P33533)
Sequence of UniProt P33533 (whole entry, looked up): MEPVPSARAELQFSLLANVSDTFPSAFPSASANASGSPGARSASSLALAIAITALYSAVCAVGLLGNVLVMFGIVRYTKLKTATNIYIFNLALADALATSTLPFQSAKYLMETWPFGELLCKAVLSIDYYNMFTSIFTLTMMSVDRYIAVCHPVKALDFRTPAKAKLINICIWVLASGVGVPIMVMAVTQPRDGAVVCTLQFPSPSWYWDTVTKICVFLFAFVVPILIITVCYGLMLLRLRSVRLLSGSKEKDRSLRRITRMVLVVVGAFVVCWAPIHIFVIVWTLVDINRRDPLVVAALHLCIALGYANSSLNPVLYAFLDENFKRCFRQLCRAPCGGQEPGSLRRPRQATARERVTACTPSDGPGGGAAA
PAL1: PAL1 (Petroselinum crispum, UniProt P24481)
Sequence of UniProt Q9Y2J8 (whole entry, looked up): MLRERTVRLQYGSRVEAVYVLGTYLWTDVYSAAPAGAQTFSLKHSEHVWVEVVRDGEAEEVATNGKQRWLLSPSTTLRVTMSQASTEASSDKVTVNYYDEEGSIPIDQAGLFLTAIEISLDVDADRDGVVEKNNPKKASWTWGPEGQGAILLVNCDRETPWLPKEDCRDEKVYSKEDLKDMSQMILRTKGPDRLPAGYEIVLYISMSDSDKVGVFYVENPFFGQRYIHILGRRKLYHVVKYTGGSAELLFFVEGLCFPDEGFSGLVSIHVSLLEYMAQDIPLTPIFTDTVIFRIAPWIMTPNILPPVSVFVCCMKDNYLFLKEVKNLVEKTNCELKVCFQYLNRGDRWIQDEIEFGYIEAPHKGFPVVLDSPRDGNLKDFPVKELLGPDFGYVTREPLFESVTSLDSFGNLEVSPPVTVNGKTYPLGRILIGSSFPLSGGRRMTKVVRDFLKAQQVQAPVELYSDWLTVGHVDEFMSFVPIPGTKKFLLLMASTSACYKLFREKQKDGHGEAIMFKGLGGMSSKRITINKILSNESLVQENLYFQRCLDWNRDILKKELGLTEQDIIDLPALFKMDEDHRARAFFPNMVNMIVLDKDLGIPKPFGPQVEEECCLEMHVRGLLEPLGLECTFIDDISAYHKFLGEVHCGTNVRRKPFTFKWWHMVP
Sequence of UniProt Q9UH17 (whole entry, looked up): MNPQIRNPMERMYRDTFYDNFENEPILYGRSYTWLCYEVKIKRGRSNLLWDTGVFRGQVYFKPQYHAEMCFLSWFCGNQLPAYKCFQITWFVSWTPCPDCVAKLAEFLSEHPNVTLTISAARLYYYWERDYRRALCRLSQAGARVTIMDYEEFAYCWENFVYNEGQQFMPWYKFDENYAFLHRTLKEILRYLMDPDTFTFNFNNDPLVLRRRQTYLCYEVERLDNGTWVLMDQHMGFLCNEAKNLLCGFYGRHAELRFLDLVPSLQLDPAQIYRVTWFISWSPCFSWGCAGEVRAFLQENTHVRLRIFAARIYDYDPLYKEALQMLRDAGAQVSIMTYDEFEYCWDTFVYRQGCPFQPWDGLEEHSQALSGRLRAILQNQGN
Sequence of UniProt Q8C167 (whole entry, looked up): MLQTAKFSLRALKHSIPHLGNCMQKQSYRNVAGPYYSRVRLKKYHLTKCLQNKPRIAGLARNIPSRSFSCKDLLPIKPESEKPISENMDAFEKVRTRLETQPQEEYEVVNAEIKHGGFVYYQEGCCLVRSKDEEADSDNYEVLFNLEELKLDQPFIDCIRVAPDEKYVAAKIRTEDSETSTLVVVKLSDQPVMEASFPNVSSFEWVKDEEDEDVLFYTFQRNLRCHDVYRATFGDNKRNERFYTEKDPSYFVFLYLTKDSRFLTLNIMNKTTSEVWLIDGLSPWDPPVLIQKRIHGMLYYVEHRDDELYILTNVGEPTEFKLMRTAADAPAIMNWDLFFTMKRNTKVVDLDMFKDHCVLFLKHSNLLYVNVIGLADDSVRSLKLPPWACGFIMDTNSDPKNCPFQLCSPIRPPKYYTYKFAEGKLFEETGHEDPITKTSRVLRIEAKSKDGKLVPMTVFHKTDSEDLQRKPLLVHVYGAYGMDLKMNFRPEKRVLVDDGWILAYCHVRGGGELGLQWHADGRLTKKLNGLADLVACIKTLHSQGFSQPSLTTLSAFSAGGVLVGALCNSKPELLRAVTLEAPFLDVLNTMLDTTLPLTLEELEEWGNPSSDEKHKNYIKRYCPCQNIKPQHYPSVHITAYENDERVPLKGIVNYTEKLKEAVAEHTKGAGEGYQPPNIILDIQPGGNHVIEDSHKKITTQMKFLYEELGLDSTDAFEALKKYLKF
Sequence of UniProt Q07912 (whole entry, looked up): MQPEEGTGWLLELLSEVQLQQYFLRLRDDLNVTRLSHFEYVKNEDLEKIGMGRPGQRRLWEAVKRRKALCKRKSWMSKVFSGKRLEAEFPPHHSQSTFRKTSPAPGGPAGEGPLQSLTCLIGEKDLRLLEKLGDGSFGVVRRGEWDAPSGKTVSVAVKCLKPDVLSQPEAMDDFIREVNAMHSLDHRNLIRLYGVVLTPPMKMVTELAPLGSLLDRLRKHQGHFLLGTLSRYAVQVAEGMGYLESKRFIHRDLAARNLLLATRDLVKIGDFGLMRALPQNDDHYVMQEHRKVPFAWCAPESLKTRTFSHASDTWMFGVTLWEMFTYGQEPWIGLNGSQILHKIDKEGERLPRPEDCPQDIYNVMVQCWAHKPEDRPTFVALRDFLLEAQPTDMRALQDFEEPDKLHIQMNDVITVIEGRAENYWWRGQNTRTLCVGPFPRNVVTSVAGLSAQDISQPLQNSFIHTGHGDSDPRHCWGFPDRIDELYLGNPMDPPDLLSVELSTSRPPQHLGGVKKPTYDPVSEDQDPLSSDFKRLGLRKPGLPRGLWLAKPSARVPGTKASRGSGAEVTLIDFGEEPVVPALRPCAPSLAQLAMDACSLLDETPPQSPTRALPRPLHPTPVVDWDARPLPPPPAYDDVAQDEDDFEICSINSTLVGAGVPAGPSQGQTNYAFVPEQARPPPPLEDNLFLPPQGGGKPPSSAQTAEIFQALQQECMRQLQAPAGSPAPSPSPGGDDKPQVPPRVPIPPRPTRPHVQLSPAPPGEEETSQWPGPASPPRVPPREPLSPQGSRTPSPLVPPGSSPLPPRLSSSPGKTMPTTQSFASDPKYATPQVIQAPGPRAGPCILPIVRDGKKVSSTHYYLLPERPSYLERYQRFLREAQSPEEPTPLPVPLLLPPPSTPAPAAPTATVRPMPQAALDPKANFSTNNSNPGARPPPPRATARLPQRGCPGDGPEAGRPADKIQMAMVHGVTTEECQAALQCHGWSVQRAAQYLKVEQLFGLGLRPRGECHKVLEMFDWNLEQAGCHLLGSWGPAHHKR
Sequence of UniProt P20273 (whole entry, unmodified, looked up): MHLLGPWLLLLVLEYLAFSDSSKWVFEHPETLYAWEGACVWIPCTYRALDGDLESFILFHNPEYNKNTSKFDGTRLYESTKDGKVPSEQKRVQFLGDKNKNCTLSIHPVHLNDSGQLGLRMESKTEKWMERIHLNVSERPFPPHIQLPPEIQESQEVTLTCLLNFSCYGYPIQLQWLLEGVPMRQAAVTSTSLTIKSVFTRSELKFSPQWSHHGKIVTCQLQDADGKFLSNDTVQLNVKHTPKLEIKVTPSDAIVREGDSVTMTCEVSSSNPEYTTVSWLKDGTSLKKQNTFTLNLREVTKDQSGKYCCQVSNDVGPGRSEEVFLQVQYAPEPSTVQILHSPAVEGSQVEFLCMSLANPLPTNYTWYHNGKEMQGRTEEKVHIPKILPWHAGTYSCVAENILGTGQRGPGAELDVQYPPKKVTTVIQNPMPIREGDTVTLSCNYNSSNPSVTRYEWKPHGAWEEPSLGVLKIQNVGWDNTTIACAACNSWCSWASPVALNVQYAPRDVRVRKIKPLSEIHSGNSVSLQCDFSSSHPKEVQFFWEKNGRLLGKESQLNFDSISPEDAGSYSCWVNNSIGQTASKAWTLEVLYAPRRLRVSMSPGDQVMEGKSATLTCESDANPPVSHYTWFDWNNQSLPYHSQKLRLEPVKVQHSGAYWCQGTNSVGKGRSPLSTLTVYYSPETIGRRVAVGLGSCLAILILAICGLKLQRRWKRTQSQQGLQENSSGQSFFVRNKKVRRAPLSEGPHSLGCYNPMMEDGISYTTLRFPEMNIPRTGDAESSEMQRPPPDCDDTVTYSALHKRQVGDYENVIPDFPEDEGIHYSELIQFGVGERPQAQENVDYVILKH
Sequence of UniProt P0A988 (whole entry, unmodified, looked up): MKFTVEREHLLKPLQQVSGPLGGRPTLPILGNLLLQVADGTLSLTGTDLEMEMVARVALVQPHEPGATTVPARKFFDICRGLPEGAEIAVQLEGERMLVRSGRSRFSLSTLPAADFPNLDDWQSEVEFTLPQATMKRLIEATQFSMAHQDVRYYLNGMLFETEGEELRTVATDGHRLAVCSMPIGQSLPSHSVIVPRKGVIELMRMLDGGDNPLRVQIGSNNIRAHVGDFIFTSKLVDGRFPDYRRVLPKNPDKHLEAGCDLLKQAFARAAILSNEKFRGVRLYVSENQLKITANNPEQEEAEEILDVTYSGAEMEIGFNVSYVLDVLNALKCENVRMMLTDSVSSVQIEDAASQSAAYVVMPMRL

| Structure (SMILES) | target or system | assay | test system | setting | how to read | measurement | value |
| --- | --- | --- | --- | --- | --- | --- | --- |
| CCCC[C@H]1CNCCN1C[C@@H]1CCCN1C[C@H](CC1CCCCC1)N1CCN(CCc2ccc(Cl)c(Cl)c2)[C@H](Cc2ccc(O)cc2)C1 | Oprd1 | radioligand binding | rat brain membranes | 500 nM, pH 7.5, 25 °C, with: 2 nM [3H]DPDPE |  | remaining binding | 88.7% |
| CC(C)CC(O)(CC(C)C)c1cn(C(=O)N2CCCC2)nn1 | Prolyl endopeptidase-like (Prepl, Mus musculus, UniProt Q8C167) | enzyme activity, inhibitor, measured: Prepl | mouse, brain | i.p., 0.8 mg/kg, 4 h, protein level | relative to: vehicle | ratio of ratios | 0.57 |
| CC(C)[C@H]1NC(=O)C[C@H]2/C=C/CCSSC[C@@H](NC1=O)C(=O)N[C@H](Cc1cccc3ccccc13)C(=O)NCC(=O)O2 | ALK tyrosine kinase receptor (ALK, Homo sapiens, UniProt Q9UM73, C1156Y) | enzyme activity, inhibitor |  | 10 µM |  | inhibition | -1% |
| CC[C@H](C)[C@@H]1NC(=O)[C@H](CC(N)=O)NC(=O)[C@@H]2CCCN2C(=O)[C@@H](NC(=O)[C@H](CC(N)=O)NC(=O)[C@@H](N)CCC(N)=O)COC(=O)[C@H](CCSC)NC(=O)[C@H](Cc2c[nH]c3ccccc23)NC(=O)[C@H](CCC(N)=O)NC(=O)CNC(=O)CN(Cc2ccccc2)C1=O | Fsr quorum sensing protein (Enterococcus faecalis, UniProt A0ACD6TCR9) | reporter gene, agonist |  |  | relative to: compound over native peptide | EC50 ratio | > 100 fold |
| CN(C)CCCSC(=S)N1CCN(C(=O)/C=C/c2coc3ccccc3c2=O)CC1 | Nucleoprotein (N, Tomato spotted wilt virus, UniProt P25999, R94A) | binding, microscale thermophoresis |  | 0.061 µM | dose series | MST response | 842 a.u. |
| C=C(c1ccccc1)[C@H](N)P(=O)(O)O | PAL1 | L-Phe deamination, inhibitor, UV steady-state kinetics |  | 100 µM, with: L-Phe 1 mM |  | reaction rate reduction | 23% |
| CCO[C@H]1[C@H](O)[C@@H](N)[C@@H](O[C@H]2[C@H](O[C@@H]3O[C@H](CO)[C@@H](O[C@H]4O[C@@H](CN)[C@@H](O)[C@H](O)[C@H]4N)[C@H]3O)[C@@H](O)[C@H](N)C[C@@H]2N)O[C@@H]1CO | Alpha-1A adrenergic receptor (ADRA1A, Homo sapiens, UniProt P35348) | radioligand binding |  | 10 µM, 1% DMSO |  | specific binding | -3% |
| O=C(CF)N[C@H]1[C@H]([C@H](O)[C@H](O)CNC(=O)c2ccc(-c3ccccc3)cc2)O[C@@](OCc2cccc(Cl)c2Cl)(C(=O)O)C[C@@H]1O | B-cell receptor CD22 (CD22, Homo sapiens, UniProt P20273) | isothermal titration calorimetry |  |  |  | -TΔS | 0.21 ± 0.02 kcal/mol |
| N[C@@H](Cc1ccccc1)P(=O)(O)O | PAL1 | L-Phe deamination, inhibitor, UV steady-state kinetics |  | 200 µM, with: L-Phe 1 mM |  | reaction rate reduction | 14% |
| COc1c(N2CC3CCCNC3C2)c(F)cc2c(=O)c(C(=O)OCc3ccc([N+](=O)[O-])o3)cn(C3CC3)c12 (stereo not drawn) | Oxygen-insensitive NAD(P)H nitroreductase (nfsB, Escherichia coli K-12, UniProt P38489) | substrate |  | with: NADH 100 µM |  | initial rate | 0.54 ± 0.056 µM/min |
| CCCc1cc2cc(-n3nc(C(F)(F)F)c4c3CC(C)(C)CC4=O)cc(N3CCC(O)CC3)c2c(=O)[nH]1 | Heat shock protein HSP 90-beta (HSP90AB1, Homo sapiens, UniProt P08238) | fluorescence polarization |  |  | relative to: apparent KD Hsp90α over apparent KD HSP90AB1 | selectivity ratio | > 100 fold |
| C#CCCCCOc1ccc2c(c1)CCCN2C(=O)CCl | Cytochrome c oxidase subunit 6B1 (Homo sapiens, UniProt P14854) | mass spectrometry profiling, measured: COX6B1 | H460 cell lysate | 100 µM over 10 µM, UniProt P14854 | relative to: high over low concentration | reactivity ratio | 1.55 |
| CCn1nc(Cl)c2c1-c1cnc(N)c(c1)O[C@H](C)c1cc(F)ccc1-c1nn(C)cc1C2 | Activated CDC42 kinase 1 (TNK2, Homo sapiens, UniProt Q07912) | kinase activity, inhibitor |  |  | relative to: IC50 TNK2 over IC50 ALK | selectivity ratio | 60 fold |
| CCOC(=O)[C@@H]1Cc2c(cc([N+](=O)[O-])cc2[N+](=O)[O-])[C@H](O)[C@]12C(=O)Nc1ccc(Br)cc12 | Atypical kinase COQ8A, mitochondrial (COQ8A, Homo sapiens, UniProt Q8NI60) | binding, competition with immobilised ligand |  | 0.1 µM |  | remaining binding | 100% |
| O=C1NC(=O)c2c1c1cc(F)c[n+]3c1c1c2c2cc(O)ccc2[n]1[Ru-4]312([N]=C=S)[S+]3CC[S+]1CC[S+]2CC3 (stereo not drawn) | Serine/threonine-protein kinase Sgk2 (SGK2, Homo sapiens, UniProt Q9HBY8) | enzyme activity |  | 100 nM, human enzyme, with: 10 µM ATP | relative to: untreated | remaining activity | 27% |
| CS(C)(=O)=Nc1ccc(-c2ccc(-c3nc4cc(O[C@@H]5CO[C@H]6[C@@H]5OC[C@H]6O)[nH]c4cc3F)cc2)cc1 | Interleukin-1 receptor-associated kinase 1 (IRAK1, Homo sapiens, UniProt P51617) | enzyme activity, inhibitor |  | 10 µM |  | inhibition | 31% |
| CCCC[C@H]1CNCCN1C[C@@H]1CCCN1C[C@H](CC1CCCCC1)N1CCN(CCC23CC4CC(CC(C4)C2)C3)[C@H]([C@@H](C)O)C1 | Oprd1 | radioligand binding | rat brain membranes | 500 nM, pH 7.5, 25 °C, with: 2 nM [3H]DPDPE |  | remaining binding | 84.2% |
| C=CC(=O)NC[C@H](NC(=O)[C@H](CC1CCCCC1)NC(=O)[C@H](CCC(N)=O)NC(C)=O)C(=O)N[C@@H](CC(C)C)C(=O)N[C@@H](Cc1ccccc1)C(=O)O | Beta sliding clamp (Escherichia coli, UniProt P0A988) | binding, isothermal titration calorimetry |  | pH 7.4, 22 °C |  | -TΔS | 2.3 kcal/mol |
| O=C1NC2(CC2)COc2ncc(F)cc2[C@H]2COCCN2c2ccn3ncc1c3n2 |  |  | Sprague-Dawley rat, male, heart | oral, 20 mg/kg/day, 4 weeks, end of treatment |  | organ-to-body weight ratio | 0.435 ± 0.062% |
| CN(C)[C@H]1C[C@@]23CC[C@@]4(O2)C(=CC[C@]2(C)[C@@H](c5ccc6ccncc6c5)CC[C@H]24)C=C3[C@@H](O)[C@@H]1O | Tyrosine-protein kinase Fer (FER, Homo sapiens, UniProt P16591) | ATP probe labelling, inhibitor, KiNativ profiling |  | 1 µM |  | inhibition | -4.2% |
| CC(C)C[C@H](NC(=O)[C@H]1O[C@@H]1C(=O)O)C(=O)NCCCCN=C(N)N | Papain (Carica papaya, UniProt P00784) | enzyme activity, inhibitor |  |  |  | Hill slope | -1.36 |
| CCCC[C@H]1CNCCN1C[C@@H]1CCCN1C[C@H](CC1CCCCC1)N1CCN(CCC23CC4CC(CC(C4)C2)C3)[C@H]([C@H](C)CC)C1 | Oprd1 | radioligand binding | rat brain membranes | 500 nM, pH 7.5, 25 °C, with: 2 nM [3H]DPDPE |  | remaining binding | 91.4% |
| CC(=O)N[C@H](C(=O)N[C@@H](CCCNC(=N)N)C(=O)NCC(=O)N[C@@H](CO)C(=O)N[C@@H](CS)C(=O)N[C@@H](CCCNC(=N)N)C(=O)N[C@@H](CCCCN)C(=O)N[C@@H](CCCNC(=N)N)C(=O)N[C@@H](CC(N)=O)C(=O)N[C@@H](CCCNC(=N)N)C(=O)N[C@@H](CO)C(=O)N1CCC[C@H]1C(=O)N[C@@H](CCC(=O)O)C(=O)N[C@@H](CCCNC(=N)N)C(N)=O)[C@@H](C)O | WD repeat-containing protein 5 (WDR5, Homo sapiens, UniProt P61964) | binding, isothermal titration calorimetry |  | pH 7.0, 20 °C |  | ΔH | -18.7 kcal/mol |
| N[C@H](C(=O)N1CCCC1)C1CCN(c2nccc3c(-c4ncc(Cl)cc4Cl)cccc23)CC1 | Protein-arginine deiminase type-2 (PADI2, Homo sapiens, UniProt Q9Y2J8) | thermal shift |  | 0.00953 µM |  | melting temperature | 58.1 °C and 58.7 °C |
| CCNC(=S)NN=Cc1c2ccccc2cc2ccccc12.Cc1ccc(C(C)C)cc1.[Cl-].[Cl-].[Ru+2] | Albumin (ALB, Homo sapiens, UniProt P02768) | fluorescence titration, Scatchard |  | 301 K |  | binding constant | 11.4 ± 0.19 10⁴ M⁻¹ |
| C=CC(=O)Nc1cc(-c2ccc(C(=O)N3CCCC(O)(CC)C3)cc2)ccc1F (stereo not drawn) | DNA dC->dU-editing enzyme APOBEC-3B, C-terminal domain (Homo sapiens, UniProt Q9UH17) | covalent adduct, intact protein MS |  | 3 h, 20-fold excess, 500 µM |  | unmodified protein | 22% and 27% |
| C[C@@H]1NC(=O)[C@H](CCCNC(=N)N)NC(=O)[C@H](Cc2ccc3ccccc3c2)NC(=O)[C@H]2CCCCN2C(=O)[C@@H]([C@H](C)O)NC(=O)[C@H](Cc2ccc(F)cc2)NC(=O)[C@@H](Cc2ccc(F)cc2)NC(=O)c2cc3cc(c2)C(=O)NC[C@H](NC(=O)[C@@H](Cc2ccccc2)NC1=O)C(=O)N[C@@H](Cc1ccccc1)C(=O)N[C@@H](Cc1ccc2ccccc2c1)C(=O)N[C@@H](CCCNC(=N)N)C(=O)N[C@@H](CCCNC(=N)N)C(=O)N[C@@H](CCCNC(=N)N)C(=O)N[C@@H](CCCNC(=N)N)C(=O)N[C@H](C(=O)N[C@@H](CCCCN)C(N)=O)CNC3=O | Peptidyl-prolyl cis-trans isomerase FKBP1A (FKBP1A, Homo sapiens, UniProt P62942) | inhibitor |  | up to 5 µM, with: Suc-Ala-Glu-Pro-Phe-pNA |  | isomerase activity | no effect |
| [CH3][Ti+2][O]C(=O)c1ccc([S][Au][PH](c2ccccc2)(c2ccccc2)c2ccccc2)cc1.c1cc[cH-]c1.c1cc[cH-]c1 | RAF1 | kinase activity, HotSpot kinase |  | 1 µM, with: ATP 10 µM |  | remaining activity | 109% and 110% |
| COCC1CCCCN1C(=O)n1cc(C(O)(c2ccccc2)c2ccccc2)nn1 (stereo not drawn) | S-formylglutathione hydrolase (Esd, Mus musculus, UniProt Q9R0P3) | enzyme activity, inhibitor, competitive ABPP-SILAC, measured: Esd | mouse T-cells | concentration not given, 4 h, treated in situ | relative to: DMSO | activity ratio | 1.29 |
| O=S(=O)(F)c1cccc(S(=O)(=O)Nc2ccc(C3CC3)c(F)c2)c1 | GTPase KRas (KRAS, Homo sapiens, UniProt P01116) | enzyme activity, inhibitor |  |  |  | kinact | 2.5e-05 s⁻¹ |
